Experimental data gathered from unrelated publications.
Compare with care: the assays were run in different laboratories. “And” joins repeats or separate records; there may be more than shown. Numbers after ± are the reported error.

Structure (SMILES) | assay | test system | setting | quantity | result
O=P(O)(O)c1ccc(O)c(CO)c1 |  | mice | oral, 25 mg/kg | plasma detection | not detected
COc1cc2c3c(c4cc(OC)c(OC)cc4c2cc1OC)C[N+]1([O-])CCCCC1C3 (centres unmarked) |  | swine cells | 24 (unit not given) | CC50 | > 50 µM
CCNc1cc2[o+]c3cc(NCC)c(C)cc3c(-c3ccccc3C(=O)OCCOCC[18F])c2cc1C |  | rat, bone | 30 min | tissue uptake | 0.29 ± 0.03 %ID/g
CC[C@H](C)[C@H](NC(=O)[C@H](CC(C)C)NC(=O)CNC(=O)[C@H](Cc1c[nH]cn1)NC(=O)[C@@H](NC(=O)[C@H](Cc1c[nH]c2ccccc12)NC(=O)[C@H](CCCCN)NC(=O)CNC(=O)[C@@H](NC(=O)[C@H](Cc1c[nH]cn1)NC(=O)[C@H](Cc1c[nH]cn1)NC(=O)[C@@H](NC(=O)CNC(=O)[C@H](Cc1c[nH]cn1)NC(=O)[C@H](Cc1ccccc1)NC(=O)[C@H](CC(C)C)NC(=O)[C@H](CC(C)C)NC(=O)CNC(=O)[C@H](CC(C)C)NC(=O)[C@@H](N)Cc1ccccc1)C(C)C)C(C)C)[C@@H](C)CC)C(=O)N[C@@H](Cc1c[nH]cn1)C(=O)NCC(=O)N[C@@H](Cc1c[nH]cn1)C(=O)N[C@@H](Cc1c[nH]cn1)C(N)=O |  | zebrafish embryos | 1 h, 4, 28, 52 hpf | acute toxic concentration | 5 µg/mL
CC[C@@H](C)[C@@H](NC(=O)[C@@H](CCCCN)NC(=O)[C@H](NC(=O)[C@@H](Cc1c[nH]c2ccccc12)NC(=O)[C@@H](Cc1ccccc1)NC(=O)[C@@H](CCC(N)=O)NC(=O)[C@@H](CC(N)=O)NC(=O)[C@@H](CCCNC(=N)N)NC(=O)[C@@H](CCCNC(=N)N)NC(=O)[C@@H](CCSC)NC(=O)[C@@H](CCCCN)NC(=O)[C@@H](Cc1c[nH]c2ccccc12)NC(=O)[C@@H](CCCCN)NC(=O)[C@@H](CCCCN)NC(=O)CNC(=O)[C@@H](CCCCN)NC(=O)CNC(=O)[C@@H](CCC(N)=O)NC(=O)[C@@H](Cc1c[nH]cn1)NC(=O)[C@H](N)CCCNC(=N)N)[C@H](C)CC)C(=O)N[C@H](CCC(N)=O)C(=O)N[C@H](CCCNC(=N)N)C(=O)O | PAMPA | CF sputum layer | 2 mg/mL, 5 h, pH 7.4 | Papp | 2.55 ×10⁻⁶ cm/s
C[C@H]1N=C(c2ccccc2F)c2cc(Br)ccc2-n2cnc(C(=O)NCCS(=O)(=O)O)c21 | LC-MS/MS | Swiss Webster mouse, female, urine | intraperitoneal, 750 µg parent drug, 0 to 24 h | cumulative excretion | 0.4 ± 0.1%
O=C(c1ccc(F)cc1)C1CCN(C2Cc3c(cccc3OCC[18F])CC2O)CC1 (single isomer, unassigned; (-)) |  | cynomolgus monkey, arterial blood | dose not given, plasma over whole blood | plasma radioactivity fraction | 70 to 82%
[11CH3]n1c(=O)n(CCCO)c(=O)c2c1nc(Oc1cccc(OC(F)(F)F)c1)n2Cc1ccc(Cl)cc1 | ex vivo biodistribution | Sprague Dawley rat, brain | 30 min post injection | tracer uptake | 0.37 ± 0.01 %ID/g
COC(=O)C[C@](O)(CCCC(C)(C)OC(C)=O)C(=O)O[C@@H]1C(OC)=C[C@]23CCCN2CCc2cc4c(cc2[C@H]13)OCO4 |  | CD1 mouse, liver | subcutaneous, 1 mg/kg, 8 h, below quantification limit 1.00 ng/mL | tissue concentration | not detected
CC[C@H](C)[C@H](NC(=O)CNC(=O)[C@@H](NC(=O)[C@H](Cc1ccc(O)cc1)NC(=O)[C@@H](NC(=O)[C@H](CO)NC(=O)[C@@H](NC(=O)[C@H](C)NC(=O)[C@@H]1CCCN1C(=O)[C@@H](NC(=O)[C@H](Cc1ccccc1)NC(=O)[C@H](CCCCN)NC(=O)[C@H](CCC(=O)O)NC(=O)[C@H](Cc1ccc(O)cc1)NC(=O)[C@H](CC(C)C)NC(=O)[C@H](CC(=O)O)NC(=O)[C@H](CCCNC(=N)N)NC(=O)[C@H](CC(C)C)NC(=O)[C@H](CCCCN)NC(=O)[C@H](CCC(=O)O)NC(=O)[C@H](Cc1ccccc1)NC(=O)[C@@H](NC(=O)[C@H](CCC(=O)O)NC(=O)[C@H](CCCCN)NC(=O)[C@H](CC(C)C)NC(=O)[C@H](Cc1ccc(O)cc1)NC(=O)[C@@H](N)CC(=O)O)C(C)C)[C@@H](C)O)C(C)C)[C@@H](C)O)[C@@H](C)O)C(=O)N[C@@H](Cc1ccccc1)C(=O)N[C@H](C(=O)N[C@@H](CC(=O)O)C(=O)N[C@@H](CCC(N)=O)C(=O)N[C@H](C(=O)N[C@@H](CC(C)C)C(=O)N[C@@H](CO)C(=O)N[C@H](C(=O)N[C@@H](CC(C)C)C(=O)N[C@@H](CCCCN)C(=O)NCC(=O)N[C@@H](CCC(=O)O)C(=O)N[C@@H](CCC(=O)O)C(=O)O)C(C)C)C(C)C)[C@@H](C)O |  | C57BL/6 mice, female, plasma | dose not given | clearance | ~0.133 mL/min/kg
CCCCCCCC(=O)OC[C@H](NC(=O)[C@H](CO)NC(=O)CN)C(=O)N[C@@H](Cc1ccccc1)C(=O)N[C@@H](CC(C)C)C(=O)N[C@@H](CO)C(=O)N1CCC[C@H]1C(=O)N[C@@H](CCC(=O)O)C(=O)N[C@@H](Cc1cnc[nH]1)C(=O)N[C@@H](CCC(N)=O)C(=O)N[C@@H](CCCNC(=N)N)C(=O)N[C@H](C(=O)N[C@@H](CCC(N)=O)C(=O)N[C@@H](CCC(N)=O)C(=O)N[C@@H](CCCNC(=N)N)C(=O)N[C@@H](CCCCN)C(=O)N[C@@H](CCC(=O)O)C(=O)N[C@@H](CO)C(=O)N[C@@H](CCCCN)C(=O)N[C@@H](CCCCN)C(=O)N1CCC[C@H]1C(=O)N1CCC[C@H]1C(=O)N[C@@H](C)C(=O)N[C@@H](CCCCN)C(=O)N[C@@H](CC(C)C)C(=O)N[C@@H](CCC(N)=O)C(=O)N1CCC[C@H]1C(=O)N[C@@H](CCCNC(=N)N)C(=O)O)C(C)C |  | human, plasma | intravenous infusion, 5 µg/kg/h, 65 min infusion | dose-normalised Cmax | 3.92 ± 0.47
O.[C-]#[O+].[C-]#[O+].[C-]#[O+].[Re+].c1cnc2c(c1)ccc1cccnc12 | RP-HPLC C18 column, item: MeCN adduct | MeCN:water 40:60, 0.1% TFA | isocratic elution | capacity factor | 4.6
C[C@@H](O)[C@H](NC(=O)[C@H](CCCCN)NC(=O)COCCN)C(=O)N[C@@H](CCCNC(=N)N)C(=O)NC(C)(C)C(=O)N[C@@H](CCCNC(=N)N)C(=O)NC(C)(C)C(=O)N[C@H](C(=O)N[C@@H](CO)C(=O)N[C@@H](Cc1c[nH]cn1)C(=O)N[C@@H](Cc1ccc(O)cc1)C(=O)NCC(=O)O)[C@@H](C)O |  | C57BL/6 mouse, blood | intravenous, 50 mg/kg, 10 h | mean corpuscular haemoglobin | 11.1 to 12.7 pg
CN(C)C(CNC(=O)Nc1cc(C(F)(F)F)ccc1N1CCOCC1)c1ccncc1 (centres unmarked) |  | mouse, serum | intraperitoneal, 120 mg/kg single dose | phosphorus | 7.6 mg/dL
O=C1C(P(=O)(O)O)CCCN1O (centres unmarked) |  | cynomolgus monkey, plasma | subcutaneous, 400 mg/kg, single dose, over several hours | plasma concentration | > 2000 µM
CC(C)C[C@@H](N)C(=O)NCC(=O)N[C@H](C)C(=O)N[C@H](CO)C(=O)N[C@H](Cc1c[nH]c2ccccc12)C(=O)N[C@H](Cc1c[nH]cn1)C(=O)N[C@H](CCCNC(=N)N)C(=O)N1CCC[C@@H]1C(=O)N[C@H](CC(=O)O)C(=O)N[C@H](CCCCN)C(=O)N[C@H](CS)C(=O)N[C@H](CS)C(=O)N[C@H](CC(C)C)C(=O)NCC(=O)N[C@H](Cc1ccc(O)cc1)C(=O)N[C@H](CCC(N)=O)C(=O)N[C@H](CCCCN)C(=O)N[C@H](CCCNC(=N)N)C(=O)N1CCC[C@@H]1C(=O)N[C@H](CC(C)C)C(=O)N1CCC[C@@H]1C(N)=O | LC-MS/MS | rat plasma | 500 ng/mL, -80 to 25 °C, 3 freeze-thaw cycles | measured concentration | 477 ± 19 ng/mL
O=C([O][Ti+2][O]C(=O)c1ccc([P+]([Au-][Cl])(c2ccccc2)c2ccccc2)cc1)c1ccc([P+]([Au-][Cl])(c2ccccc2)c2ccccc2)cc1.c1cc[cH-]c1.c1cc[cH-]c1 | general toxicity | mouse | subcutaneous | MTD | 10 mg/kg/day
C[C@H](O)[C@@H](NC(=O)[C@H]1CCCN1C(=O)[C@@H](CCCCN)NC(=O)[C@@H](CO)NC(=O)[C@@H](Cc1ccc(O)cc1)NC(=O)[C@@H](CC(N)=O)NC(=O)CCOCCOCCOCCNC(=O)CN1CCN(CC(=O)O)CCN(CC(=O)O)CCN(CC(=O)O)CC1)C(=O)N[C@H](CC(=O)O)C(=O)N[C@H](CCCNC(=N)N)C(=O)N[C@H](CCC(N)=O)C(=O)N[C@H](Cc1ccc(O)cc1)C(=O)N[C@H](Cc1c[nH]cn1)C(=O)N[C@H](Cc1ccccc1)C(N)=O [gallium-68 labelled] |  | U87MG xenograft BALB/c nude mice, kidney | 5 to 120 min | clearance rate | 0.12 %ID/g/min
C[C@@H]1CC[C@H]2[C@@H](C)CO[C@@H]3O[C@@]4(C)CC[C@@H]1[C@]32OO4 | item: compound | rat, plasma | 2.00 ng/mL spiked, 24 h, autosampler at 4 °C | measured concentration | 1.95 ± 0.11 ng/mL
COc1ccc(C)cc1NC(=O)OC1CC2CCCC(C1)N2Cc1ccc(CC[18F])cc1 (centres unmarked) |  | BALB/c mice, EMT6 tumour, kidney | 2 h | tissue uptake | 5.82 ± 0.33 %ID/g
CC(C)[C@H](NC(=O)CNC(=O)[C@H](CCC(N)=O)NC(=O)[C@H](C)N)C(=O)O |  | human | intravenous infusion, 15 mg/kg/h, 2 h infusion | discontinued due to adverse events | 0%
COc1cc(NC(=O)C(=O)c2c(C)n(Cc3ccc(Cl)cc3)c3ccc(C)cc23)ccn1 |  | cynomolgus monkey, male, plasma | intravenous, 1 mg/kg | CL | 9.61 mL/min/kg and 5.91 mL/min/kg and 6.84 mL/min/kg and 6.93 mL/min/kg and 7.96 mL/min/kg
CC[C@H](C)C(=O)N1CCC(NC(=O)Nc2ccc(OC(F)(F)F)c(F)c2)CC1 |  | human, fed, plasma | oral, 8 mg, single dose tablet, geometric mean | AUC(0-t) | 4120 ng·h/mL
NC(=O)CC[C@@H](NC(=O)[C@@H](CCC(N)=O)NC(=O)[C@@H](CC(N)=O)NC(=O)[C@@H](CC(N)=O)NC(=O)CNC(=O)Cc1ccc2ccccc2c1)C(=O)N[C@H](CC(N)=O)C(=O)N[C@H](Cc1ccc(OP(=O)(O)O)cc1)C(=O)O | strain sweep rheology | hydrogel | pH 7.4 | critical strain | 0.53%
CC[C@@H]1C[C@]1(NC(=O)[C@@H]1C[C@@]2(CN1C(=O)[C@@H](NC(=O)[C@@H](NC(=O)[C@@H]1CCCCN1C(C)C)C1CCCCC1)C(C)(C)C)C(C)(C)C21CCC1)C(=O)NS(=O)(=O)N1CCCC1 |  | human | oral, 50 mg, with: ritonavir 100 mg | subjects with abdominal pain | 0%
CCCCCCCC/C=C\CCCCCCCCOP(O)(O)=S.N |  | mouse, male, nonirradiated | sc, dose not given | Cmax | 476 ng/mL
CCCCCCCCCCCCC(=O)O.O=C1CCCC2C3CCCN4CCCC(CN12)C34 (centres unmarked) |  | water | concentration not given, 298.15 K | critical micelle concentration | 0.0024 mol/kg
Cc1cc(Nc2nc(C[C@@]3(C(=O)O)CCN(Cc4cccc(Cl)c4F)[C@H](C)C3)cc(C)c2F)n[nH]1 |  | beagle dog, plasma | intravenous, 1 mg/kg, single dose | half-life | 3.56 h
CC(C)C[C@H](NC(=O)[C@H](CCCCN)NC(=O)[C@H](CCC(=O)O)NC(=O)[C@H](C)NC(=O)[C@@H](NC(=O)[C@H](CCCCN)NC(=O)[C@H](CC(=O)O)NC(=O)[C@H](Cc1ccc(O)cc1)NC(=O)[C@H](Cc1ccccc1)NC(=O)[C@H](C)NC(=O)[C@H](CCCCN)NC(=O)[C@H](CC(C)C)NC(=O)[C@H](Cc1c[nH]c2ccccc12)NC(=O)[C@@H](N)CC(=O)O)C(C)C)C(=O)N[C@@H](CCCCN)C(=O)N[C@@H](CCC(=O)O)C(=O)N[C@@H](C)C(=O)N[C@@H](Cc1ccccc1)C(=O)N1CCC[C@H]1C(=O)N[C@@H](CC(=O)O)C(=O)N[C@@H](Cc1c[nH]c2ccccc12)C(=O)N[C@@H](C)C(=O)N[C@@H](CCCCN)C(=O)N[C@@H](C)C(=O)N[C@@H](C)C(=O)N[C@@H](Cc1ccc(O)cc1)C(=O)N[C@@H](CC(=O)O)C(=O)N[C@@H](CCCCN)C(=O)N[C@@H](C)C(=O)N[C@@H](C)C(=O)N[C@@H](CCC(=O)O)C(=O)N[C@@H](CCCCN)C(=O)N[C@@H](C)C(=O)N[C@@H](CCCCN)C(=O)N[C@@H](CCC(=O)O)C(=O)N[C@@H](C)C(=O)N[C@@H](C)C(=O)O |  | cynomolgus monkey female, plasma | intravenous infusion, 75 mg/kg every other day, day 27 | volume of distribution at steady state | 0.057 L/kg

Repeated from above:
Structure (SMILES) | assay | test system | setting | quantity | result
CC[C@H](C)[C@H](NC(=O)[C@H](CC(C)C)NC(=O)CNC(=O)[C@H](Cc1c[nH]cn1)NC(=O)[C@@H](NC(=O)[C@H](Cc1c[nH]c2ccccc12)NC(=O)[C@H](CCCCN)NC(=O)CNC(=O)[C@@H](NC(=O)[C@H](Cc1c[nH]cn1)NC(=O)[C@H](Cc1c[nH]cn1)NC(=O)[C@@H](NC(=O)CNC(=O)[C@H](Cc1c[nH]cn1)NC(=O)[C@H](Cc1ccccc1)NC(=O)[C@H](CC(C)C)NC(=O)[C@H](CC(C)C)NC(=O)CNC(=O)[C@H](CC(C)C)NC(=O)[C@@H](N)Cc1ccccc1)C(C)C)C(C)C)[C@@H](C)CC)C(=O)N[C@@H](Cc1c[nH]cn1)C(=O)NCC(=O)N[C@@H](Cc1c[nH]cn1)C(=O)N[C@@H](Cc1c[nH]cn1)C(N)=O |  | zebrafish embryos | 1 h, 4, 28, 52 hpf | acute toxic concentration | 5 µg/mL
Cc1cc(Nc2nc(C[C@@]3(C(=O)O)CCN(Cc4cccc(Cl)c4F)[C@H](C)C3)cc(C)c2F)n[nH]1 |  | beagle dog, plasma | intravenous, 1 mg/kg, single dose | half-life | 3.56 h
